Assay results gathered from unrelated publications.
Lines come from different studies, so protocols differ. ± marks the error that the study gave. ≈ marks a conversion by molar mass, not a printed value.
Organism: Escherichia coli

For `C#CCN1C(=O)C(CC#C)(C(=O)OCC)Oc2ccccc21` (stereo not shown), growth inhibition read “no inhibition” (BL21(DE3); 100 µM).
For `C=CC(=O)NCCCCOCc1cn(CCCCNC(=O)C=C)n[n+]1C`, the IC50 was greater than 100 µM (growth, turbidity OD600; ΔtolC; 24 h).
`CC(C)C[C@H](NC(=O)[C@H](CCN)NC(=O)[C@H](CCN)NC(=O)[C@@H](Cc1ccccc1)NC(=O)[C@H](CC(C)C)NC(=O)[C@H](CCN)NC(=O)[C@H](CCN)NC(=O)[C@@H](CCN)NC(=O)CCSCCOC(=O)c1ccccc1)C(N)=O` has an MBC of 16 µM (≈ 18 µg/mL) (ATCC 10546; 24 h, 37 °C).
For `CC[C@H](C)[C@H](N)C(=O)N[C@@H](CC(C)C)C(=O)N[C@@H](CO)C(=O)N[C@@H](C)C(=O)N[C@@H](C)C(=O)N[C@@H](Cc1ccc(O)cc1)C(=O)N[C@@H](CO)C(=O)NCC(=O)N[C@H](C(=O)N[C@H](C(=O)N[C@@H](CO)C(=O)N[C@@H](CC(C)C)C(=O)N[C@H](C(=O)NCCCCCC(=O)N[C@@H](Cc1c[nH]c2ccccc12)C(N)=O)[C@@H](C)CC)[C@@H](C)CC)[C@@H](C)CC`, “relative growth rate” read -0.00585 (K-12 MG1655, MHB; concentration not given, 37 °C; reference: untreated).
`CC[C@H](C)[C@H](NC(=O)[C@H](CC(C)C)NC(=O)[C@H](CC(=O)O)NC(=O)[C@H](CCCNC(=N)N)NC(=O)[C@H](Cc1c[nH]c2ccccc12)NC(=O)[C@@H](N)CC(C)C)C(=O)N[C@@H](CS)C(=O)N[C@@H](CC(C)C)C(=O)N[C@@H](CS)C(=O)N[C@@H](CCCNC(=N)N)C(=O)N[C@@H](CC(N)=O)C(=O)N[C@@H](CCCNC(=N)N)C(=O)N[C@@H](CCCNC(=N)N)C(=O)N[C@@H](CS)C(=O)N[C@@H](CC(N)=O)C(=O)N[C@@H](CCCNC(=N)N)C(=O)NCC(=O)N[C@@H](CCC(N)=O)C(=O)N[C@@H](CC(C)C)C(=O)N[C@@H](Cc1ccccc1)C(=O)N1CCC[C@H]1C(=O)NCC(=O)N[C@@H](Cc1c[nH]c2ccccc12)C(=O)N[C@@H](CS)C(=O)N1CCC[C@H]1C(=O)NCC(=O)N[C@@H](Cc1c[nH]c2ccccc12)C(=O)N[C@@H](Cc1c[nH]c2ccccc12)C(=O)N[C@@H](CC(C)C)C(=O)N[C@@H](CCCNC(=N)N)C(=O)N[C@@H](CS)C(=O)N[C@@H](CS)C(=O)N[C@@H](CCCNC(=N)N)C(=O)N[C@@H](CCCNC(=N)N)C(N)=O` has a bactericidal rate of 96.6% (colony count; PBS; 20 µg/mL, 2 h).
`CC[C@H](C)[C@H](NC(=O)[C@H](Cc1ccccc1)NC(=O)[C@H](CCCCN)NC(=O)[C@H](CCCCN)NC(=O)CNC(=O)[C@H](C)NC(=O)[C@H](CC(N)=O)NC(=O)[C@H](CCCCN)NC(=O)[C@H](Cc1ccccc1)NC(=O)[C@H](CC(N)=O)NC(=O)[C@H](CCC(=O)O)NC(=O)[C@H](Cc1c[nH]c2ccccc12)NC(=O)[C@H](CC(C)C)NC(=O)[C@@H](N)CO)C(=O)N[C@@H](CC(C)C)C(=O)N[C@@H](CC(N)=O)C(=O)N[C@H](C(=O)N[C@@H](CC(C)C)C(=O)N[C@@H](CC(=O)O)C(=O)N[C@@H](CCCCN)C(N)=O)[C@@H](C)CC` — result for “time to eradication”: greater than 120 min (colony counts; ATCC 8739; 1 x MIC).
For `C=CC(=O)NCCCCCCCCOCc1cn(CCCCCCCCNC(=O)C=C)nn1`, the IC50 was greater than 100 µM (growth, turbidity OD600; ΔtolC; 24 h).
The potency reduction of `CO[C@@H](C(N)=O)[C@H](NC(=O)c1ccc(NC(=O)[C@@H](N)Cc2ccccc2)cc1)C(=O)Nc1ccc(C(=O)Nc2ccc(C(=O)Nc3ccc(C(=O)O)c(O)c3OC(C)C)c(O)c2OC(C)C)cc1` is reported as roughly 10 fold (empty cosmid; concentration not given; reference: albicidin).
`O=c1n(CCNCCOS(=O)(=O)c2ccccc2)c(=O)n(S(=O)(=O)c2ccccc2)c(=O)n1S(=O)(=O)c1ccccc1` has an MLC of 8 ± 2 µg/mL (broth microdilution).
`C=CS(=O)(=O)NCCCCCCCCCCOCc1cn(CCCCCCCCCCNS(=O)(=O)C=C)nn1` has an IC50 of greater than 100 µM (growth, turbidity OD600; ΔtolC; 24 h).
The IC50 of `CC[C@H](C)[C@H](NC(=O)[C@H](Cc1c[nH]c2ccccc12)NC(=O)c1ccccc1)C(=O)N[C@@H](CCCNC(=N)N)C(=O)N[C@@H](Cc1ccc(O)cc1)C(=O)N[C@@H](CCCCN)C(=O)N[C@@H](Cc1c[nH]c2ccccc12)C(=O)N1CCC[C@@H]1C(=O)N[C@@H](CCCNC(=N)N)C(=O)N[C@@H](CCCCN)C(=O)N[C@@H](CCCCN)C(=O)N[C@H](C(=O)N[C@@H](CCCNC(=N)N)C(=O)N[C@@H](Cc1ccc(O)cc1)C(=O)N[C@@H](Cc1c[nH]c2ccccc12)C(=O)N[C@H](C(=O)NCC(=O)N1CCC[C@H]1C(N)=O)[C@@H](C)O)C(C)C` is reported as 45 µM (growth; DH5α; 16 h, 37 °C).
`CCC(=O)OCCSC[C@H](N)C(=O)N[C@H](CCN)C(=O)N[C@@H](CCN)C(=O)N[C@@H](CCN)C(=O)N[C@@H](CC(C)C)C(=O)N[C@H](Cc1ccccc1)C(=O)N[C@@H](CCN)C(=O)N[C@@H](CCN)C(=O)N[C@@H](CC(C)C)C(N)=O` has an MBC of 32 µM (≈ 35 µg/mL) (ATCC 10546; 24 h, 37 °C).
For `CC[C@H](C)CCCCC(=O)N[C@@H](CCN)C(=O)N[C@H](C(=O)N[C@@H](CCN)C(=O)N[C@H]1CCNC(=O)[C@H]([C@@H](C)O)NC(=O)[C@H](CCN)NC(=O)[C@H](CCN)NC(=O)[C@H](CC(C)C)NC(=O)[C@@H](CC(C)C)NC(=O)[C@H](CCN)NC1=O)[C@@H](C)O`, “MIC fold change” read 1.37 (daily serial passaging; ATCC 8739; highest sub-MIC, 25 days; reference: initial MIC).
The IC50 of `C=CC(=O)NCCCCCCCCCCOCc1cn(CCCCCCCCCCNC(=O)C=C)nn1` is reported as greater than 100 µM (growth, turbidity OD600; ΔtolC; 24 h).
The inhibition of `C[C@@H](N)[C@H](O)CCCCCCCC(=O)CCCCCCCCCCCCCC[C@@H](O[C@@H]1O[C@H](CO)[C@H](O)[C@H](O)[C@H]1O)[C@H](N)CO` is reported as 96% (microbial growth, resazurin; ATCC10536; 50 µM).
`O=C(O)CCc1c(C(=O)O)[nH]c2ccccc12` — result for “MIC of meropenem”: 2 µg/mL (DH5α with VIM-2 plasmid; 100 µg/mL, together with: meropenem).
`C#CCCCC(=O)N[C@H]1CCOC1=O` gave an inhibition of 29 ± 3% (LuxR reporter bioluminescence, antagonist; DH5α sensor strain; 200 µM, together with: OHHL 200 nM).
`C=C(C)C(=O)NCCCCCCOCc1cn(CCCCCCNC(=O)C(=C)C)n[n+]1C` has an IC50 of greater than 100 µM (growth, turbidity OD600; ΔtolC; 24 h).
`CC[C@H](C)[C@@H]1NC(=O)CNC(=O)[C@H](CCCNC(=N)N)NC(=O)[C@H](Cc2ccc(O)cc2)NC(=O)[C@@H]2CSSC[C@H](NC1=O)C(=O)N[C@@H](Cc1ccc(O)cc1)C(=O)N[C@@H](CCCNC(=N)N)C(=O)N[C@@H](CCCNC(=N)N)C(=O)N[C@H](C(=O)N[C@@H](CCCNC(=N)N)C(=O)N[C@@H](Cc1c[nH]c3ccccc13)C(=O)N[C@@H](CCCCN)C(=O)O)CSSC[C@H](NC(=O)[C@H](Cc1c[nH]c3ccccc13)NC(=O)[C@H](Cc1c[nH]c3ccccc13)NC(=O)[C@@H](N)CCCCN)C(=O)N[C@@H](Cc1ccccc1)C(=O)N[C@@H](CCCNC(=N)N)C(=O)N[C@@H](C(C)C)C(=O)N2` gave an IC50 of greater than 100 µM (bacterial growth; DH5α; 50% growth inhibition).
The MIC50 of `COc1ccc2c(c1OC)C[NH+]1CCc3cc4c(cc3C1C2)OCO4.[Cl][Fe-]([Cl])([Cl])[Cl]` (stereo not shown) is reported as 1280 µM (24 h, 37 °C).
`CN(C)S(=O)(=O)c1ccc(S(=O)(=O)N2CCC(n3c(=O)[nH]c4ccccc43)CC2)cc1` has a streptomycin concentration of 7.84 µg/mL (Keio wild type; concentration not given, 120 h).
With `CC[C@H](C)[C@H](NC(=O)[C@H](C)NC(=O)CNC(=O)[C@H](C)NC(=O)[C@H](CCCCN)NC(=O)[C@H](CO)NC(=O)[C@H](C)NC(=O)[C@H](CCSC)NC(=O)CN)C(=O)N[C@@H](C)C(=O)NCC(=O)N[C@@H](CCCCN)C(=O)N[C@H](C(=O)N[C@@H](C)C(=O)N[C@@H](CCCCN)C(=O)N[C@H](C(=O)N[C@@H](C)C(=O)N[C@@H](CC(C)C)C(=O)N[C@@H](CCCCN)C(=O)N[C@@H](C)C(=O)N[C@@H](CC(C)C)C(N)=O)C(C)C)[C@@H](C)CC` the combination index was 0.96 (0370 ampicillin resistant; Loewe additivity, together with: ampicillin).

Excerpt of the above:
For `C=CC(=O)NCCCCCCCCOCc1cn(CCCCCCCCNC(=O)C=C)nn1`, the IC50 was greater than 100 µM (growth, turbidity OD600; ΔtolC; 24 h).
The potency reduction of `CO[C@@H](C(N)=O)[C@H](NC(=O)c1ccc(NC(=O)[C@@H](N)Cc2ccccc2)cc1)C(=O)Nc1ccc(C(=O)Nc2ccc(C(=O)Nc3ccc(C(=O)O)c(O)c3OC(C)C)c(O)c2OC(C)C)cc1` is reported as roughly 10 fold (empty cosmid; concentration not given; reference: albicidin).
